Published values of several laboratories.
± marks the error that the study gave.
B1: UGT1A4 (Homo sapiens, UniProt P22310); chain GKVLVVPTDGSPWLSMREALRELHARGHQAVVLTPEVNMHIKEEKFFTLTAYAVPWTQKEFDRVTLGYTQGFFETEHLLKRYSRSMAIMNNVSLALHRCCVELLHNEALIRHLNATSFDVVLTDPVNLCGAVLAKYLSIPAVFFWRYIPCDLDFKGTQCPNPSSYIPKLLTTNSDHMTFLQRVKNMLYPLALSYICHTFSAPYASLASELFQREVSVVDLVSYASVWLFRGDFVMDYPRPIMPNMVFIGGINCANGKPLSQEFEAYINASGEHGIVVFSLGSMVSEIPEKKAMAIADALGKIPQTVLWRYTGTRPSNLANNTILVKWLPQNDLLGHPMTRAFITHAGSHGVYESICNGVPMVMMPLFGDQMDNAKRMETKGAGVTLNVLEMTSEDLENALKAVINDKSYKENIMRLSSLHKDRPVEPLDLAVFWVEFVMRHKGAPHLRPAAHDLTWYQYHSLDVIGFLLAVVLTVAFITFKCCAYGYRKCLGKKGRVKKAHKSKTH
B2: UGT2B4 (Homo sapiens, UniProt P06133); chain GKVLVWPTEFSHWMNIKTILDELVQRGHEVTVLASSASISFDPNSPSTLKFEVYPVSLTKTEFEDIIKQLVKRWAELPKDTFWSYFSQVQEIMWTFNDILRKFCKDIVSNKKLMKKLQESRFDVVLADAVFPFGELLAELLKIPFVYSLRFSPGYAIEKHSGGLLFPPSYVPVVMSELSDQMTFIERVKNMIYVLYFEFWFQIFDMKKWDQFYSEVLGRPTTLSETMAKADIWLIRNYWDFQFPHPLLPNVEFVGGLHCKPAKPLPKEMEEFVQSSGENGVVVFSLGSMVSNTSEERANVIASALAKIPQKVLWRFDGNKPDTLGLNTRLYKWIPQNDLLGHPKTRAFITHGGANGIYEAIYHGIPMVGVPLFADQPDNIAHMKAKGAAVSLDFHTMSSTDLLNALKTVINDPLYKENAMKLSRIHHDQPVKPLDRAVFWIEFVMRHKGAKHLRVAAHDLTWFQYHSLDVTGFLLACVATVIFIITKCLFCVWKFVRTGKKGKRD
B3: enzyme (Lactiplantibacillus plantarum, UniProt Q06115); chain CTAITYQSYNNYFGRNFDYEISYNEMVTITPRKYPLVFRKVENLDHHYAIIGITADVESYPLYYDAMNEKGLCIAGLNFAGYADYKKYDADKVNITPFELIPWLLGQFSSVREVKKNIQKLNLVNINFSEQLPLSPLHWLVADKQESIVIESVKEGLKIYDNPVGVLTNNPNFDYQLFNLNNYRALSNSTPQNSFSEKVDLDSYSRGMGGLGLPGDLSSMSRFVRAAFTKLNSLSMQTESGSVSQFFHILGSVEQQKGLCEVTDGKYEYTIYSSCCDMDKGVYYYRTYDNSQINSVSLNHEHLDTTELISYPLRSEAQYYAVN
B4: UGT1A1 (Homo sapiens, UniProt P22309); chain HAGKILLIPVDGSHWLSMLGAIQQLQQRGHEIVVLAPDASLYIRDGAFYTLKTYPVPFQREDVKESFVSLGHNVFENDSFLQRVIKTYKKIKKDSAMLLSGCSHLLHNKELMASLAESSFDVMLTDPFLPCSPIVAQYLSLPTVFFLHALPCSLEFEATQCPNPFSYVPRPLSSHSDHMTFLQRVKNMLIAFSQNFLCDVVYSPYATLASEFLQREVTVQDLLSSASVWLFRSDFVKDYPRPIMPNMVFVGGINCLHQNPLSQEFEAYINASGEHGIVVFSLGSMVSEIPEKKAMAIADALGKIPQTVLWRYTGTRPSNLANNTILVKWLPQNDLLGHPMTRAFITHAGSHGVYESICNGVPMVMMPLFGDQMDNAKRMETKGAGVTLNVLEMTSEDLENALKAVINDKSYKENIMRLSSLHKDRPVEPLDLAVFWVEFVMRHKGAPHLRPAAHDLTWYQYHSLDVIGFLLAVVLTVAFITFKCCAYGYRKCLGKKGRVKKAHKSKTH
UniProt P10632, sequence (whole entry, looked up): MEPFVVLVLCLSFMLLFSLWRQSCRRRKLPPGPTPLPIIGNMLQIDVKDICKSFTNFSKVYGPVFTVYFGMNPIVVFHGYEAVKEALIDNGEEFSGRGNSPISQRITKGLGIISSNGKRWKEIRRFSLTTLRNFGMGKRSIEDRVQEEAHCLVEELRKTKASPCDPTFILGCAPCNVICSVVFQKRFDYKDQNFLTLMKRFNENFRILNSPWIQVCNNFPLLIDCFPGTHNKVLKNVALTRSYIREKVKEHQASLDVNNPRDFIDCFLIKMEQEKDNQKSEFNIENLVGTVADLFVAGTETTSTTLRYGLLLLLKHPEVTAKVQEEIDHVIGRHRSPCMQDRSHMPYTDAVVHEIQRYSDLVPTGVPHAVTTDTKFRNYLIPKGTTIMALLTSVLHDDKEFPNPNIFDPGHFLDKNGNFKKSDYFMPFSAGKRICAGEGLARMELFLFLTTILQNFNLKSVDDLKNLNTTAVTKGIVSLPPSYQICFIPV

| Molecule | target or system | test | system | setting | how to read | quantity | result |
| --- | --- | --- | --- | --- | --- | --- | --- |
| B1 (UGT1A4) | CN1CCN(CCCN2c3ccccc3Sc3ccc(C(F)(F)F)cc32)CC1 | steady-state kinetics |  | 37 °C, not purified |  | Vmax/Km | 47 µL/min/mg |
| B2 (UGT2B4) | CC(C)=CCc1cc2c(cc1O)O[C@H](c1ccc(O)cc1)CC2=O | steady-state kinetics |  | pH 7.4 |  | Vmax/Km | 40.1 µL/min/mg |
| B3 (enzyme) | C[C@H](CCC(=O)N[C@@H](Cc1ccc(O)cc1)C(=O)O)[C@H]1CC[C@H]2[C@@H]3[C@H](O)C[C@@H]4C[C@H](O)CC[C@]4(C)[C@H]3C[C@H](O)[C@]12C | steady-state kinetics |  | pH 6.2, 37 °C |  | K0.5 | 2350 µM |
| ACEEQNPWARYLEWLFPTETLLLEL |  | ex vivo fluorescence imaging | peptide, BALB/c mice, 4T1 tumour-bearing, liver | intravenous, 5 nmol, 4 h post-injection | higher = more uptake | mean fluorescence intensity | 624 ± 77.2 a.u. |
| GSGAGIATEV | human MAGI1-3/6 PDZ construct (MBP fusion) | automated holdup | peptide, crude extract | concentration not given, corrected by standard peak, unit not given | baseline: biotin control resin, higher = stronger binding | binding intensity | -0.00355 |
| insulin aspart |  | ELISA, refers to: total insulin aspart | human, type 1 diabetes, serum | subcutaneous, dose not given, least squares mean, single dose |  | time to late 50 % Cmax | 154 min |
| CYP2C8 (Homo sapiens, UniProt P10632) | CC(C)=CCc1cc2c(cc1O)O[C@H](c1ccc(O)cc1)CC2=O | steady-state kinetics |  | pH 7.4, 37 °C |  | Vmax/Km | 37.5 µL/min/mg |
| ACEQNPIYWARYADWLFTTPLLLLDLALLVDADEGT |  | ex vivo fluorescence imaging | peptide, BALB/c mice, 4T1 tumour-bearing, 4T1 tumour | intravenous, 5 nmol, 4 h post-injection | higher = more uptake | mean fluorescence intensity | 5720 ± 1280 a.u. |
| colistin | Enterobacter cloacae |  | clinical isolate RKI 308/13 |  |  | MIC | ≤ 0.5 µg/mL |
| Ubiquitin fragment (Homo sapiens) |  | NMR, refers to: Lys29 |  |  |  | pKa | 11.6 |
| pegcetacoplan |  | refers to: all TEAEs | patients with PNH | dose not given, phase Ib trial |  | number of TEAEs | 427 |
| EKPIDSETKM | human MAGI1-3/6 PDZ construct (MBP fusion) | surface plasmon resonance | peptide | concentration not given | higher = stronger binding | normalised SPR binding response | 0 normalised RU |
| insulin degludec |  |  | human | subcutaneous, 0.4 IU/kg, 3 FC level, single dose, reference formulation |  | apparent volume of distribution | 37.6 ± 9.1 L |
| ACDDQNPWRAYLDLLFPTDTLLLDLLW |  | ex vivo fluorescence imaging | peptide, BALB/c mice, 4T1 tumour-bearing | intravenous, 5 nmol, 4 h post-injection, background-corrected mean fluorescence | baseline: tumour over muscle | contrast index | 5.9 ± 0.9 |
| B4 (UGT1A1) | C[C@]12CC[C@@H]3c4ccc(O)cc4CC[C@H]3[C@@H]1CC[C@@H]2O | steady-state kinetics |  | 37 °C, not purified |  | Vmax/Km | 4.1 µL/min/mg |
| recombinant human interferon gamma | ATP-dependent translocase ABCB1 (ABCB1, Homo sapiens, UniProt P08183) |  | enteroid monolayers | 1 ng/mL, 48 h, with: tariquidar 10 µM |  | digoxin efflux ratio | increased |

Some of these lines once more:
| Molecule | target or system | test | system | setting | how to read | quantity | result |
| --- | --- | --- | --- | --- | --- | --- | --- |
| CYP2C8 (Homo sapiens, UniProt P10632) | CC(C)=CCc1cc2c(cc1O)O[C@H](c1ccc(O)cc1)CC2=O | steady-state kinetics |  | pH 7.4, 37 °C |  | Vmax/Km | 37.5 µL/min/mg |
